# Published values from different studies.
# Lines come from different studies, so protocols differ.
# Target: Citron Rho-interacting kinase (CIT, Homo sapiens, UniProt O14578)
SMILES,test,setting,scale,quantity,result
COc1cc(Nc2nccc(-c3cnn4nc(OC)ccc34)n2)cc(C(F)(F)F)c1,"binding, competition with immobilised ligand",1 µM,,remaining binding,90%
CCn1cc(C(=O)O)c(=O)c2c(N)c(F)c(NC3CCCCC3)cc21,kinase activity,"0.1 µM, together with: ATP at Km",,inhibition,6.4%
COc1cc(Nc2nc(C)cc(-c3cnn4nc(OC)ccc34)n2)cc(C(F)(F)F)c1,inhibitor,1 µM,relative to: control,remaining activity,100%
Cc1cnc2nc1Nc1cccc(c1)COC/C=C/COCc1cc(ccc1OCCN1CCOCC1)N2,cell-free assay,0.1 µM,,remaining signal,100%
C=CC(=O)N1CCCC(n2c(=O)c3ncccc3n(Cc3ccc(Oc4ccccc4)cc3)c2=O)C1 (centres unmarked),"cell-free assay, competition with immobilised ligand",1 µM,,remaining binding,93%
C=CC(=O)N1CCc2ccc(-n3c(=O)ccc4cnc5ccc(-c6cnn(C)c6)cc5c43)cc21,KINOMEscan,1 µM,relative to: DMSO control,remaining binding,89%
CNC(=O)C1CCN(c2cc(C)c(F)cc2NC(=O)c2ccc(-c3cc(O)ccc3C)c(C)c2)CC1,"binding, competition with immobilised ligand",1 µM,,remaining binding,94%
Cc1ccc(-c2c(/C=C(\C#N)C(=O)NC(C)C)n(CCCO)c3ncnc(N)c23)cc1,"cell-free assay, competition with immobilised ligand",1 µM,,remaining binding,94%
Nc1ncc2c(n1)-c1c([nH]c3ccc(C4=CCOCC4)cc13)CCC2,"binding, competition with immobilised ligand",1 µM,,remaining binding,100%
O=C(Cc1ccc(OCc2ccccc2)cc1)NC1(C(=O)O)CCN(C(=O)c2ccc(-c3cccc(Cl)c3)cc2)CC1,"enzyme activity, inhibitor",10 µM,,activity vs control,108%
CCN1CCN(Cc2ccc(C(=O)Nc3ccc(C)c(NCc4cnc5[nH]ccc5c4OC)c3)cc2C(F)(F)F)CC1,"binding, competition with immobilised ligand",1 µM,,remaining binding,18%
CNC1C[S+]2CC[S+]3CC[S+](C1)[Ru-4]321([N]=C=S)[n]2c3ccc(OC)cc3c3c4c(c5cc(F)c[n+]1c5c32)C(=O)NC4=O (centres unmarked),KinomeScan,0.1 µM,relative to: untreated,remaining binding,92%
CC(C)=CC1OC(C)(C)C2C=C3C(=O)C(Cl)=CC(O)C3C3C(O)C4OC4C(=O)C132 (centres unmarked),"cell-free assay, competition with immobilised ligand",10 µM,,remaining binding,86%
COc1c(Cl)cccc1Nc1c(-c2ccncc2C#C[C@@]2(C)CCCN2C(=O)/C=C/CN(C)C)[nH]c2c1C(=O)NCC2,"binding, competition with immobilised ligand",3 µM,,remaining binding,0%

# Repeated from above:
SMILES,test,setting,scale,quantity,result
COc1c(Cl)cccc1Nc1c(-c2ccncc2C#C[C@@]2(C)CCCN2C(=O)/C=C/CN(C)C)[nH]c2c1C(=O)NCC2,"binding, competition with immobilised ligand",3 µM,,remaining binding,0%
COc1cc(Nc2nccc(-c3cnn4nc(OC)ccc34)n2)cc(C(F)(F)F)c1,"binding, competition with immobilised ligand",1 µM,,remaining binding,90%
